Measurements pooled from the literature.
Lines come from different studies, so protocols differ. “And” joins repeats or separate records; there may be more than shown. Numbers after ± are the reported error.
ZBTB11/CRBN: ZBTB11/CRBN (Homo sapiens, UniProt O95625+Q96SW2)
T1: riboswitch RNA yjdF aptamer domain (Bacillus subtilis); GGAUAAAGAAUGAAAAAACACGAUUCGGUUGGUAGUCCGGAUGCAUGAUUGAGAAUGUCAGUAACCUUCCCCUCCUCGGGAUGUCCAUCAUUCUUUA

For `Cc1cc(NC2=CC(=O)N(C3CCC(=O)NC3=O)C2=O)cc(C(C)(C)NCCc2ccc(C(F)(F)F)c(Cl)c2)c1` (centres unmarked), the Dmax was 46% (ZBTB11/CRBN; protein degradation, degrader, HiBiT luminescence; MOLT-4).
Under “fraction of accessible fluorescence”, `CCS(=O)(=O)N1CC(CC#N)(n2cc(-c3ncnc4[nH]ccc34)cn2)C1` is recorded as 0.62 (Alpha-1-acid glycoprotein 1 (ORM1, Homo sapiens, UniProt P02763); modified Stern-Volmer; 298 K).
Under “ATP hydrolysis rate”, `O=c1nc(SCc2cc(F)cc(C(F)(F)F)c2)nc(SCc2ccc3sccc3c2)[nH]1` is recorded as 1.86 µM/min and 0.975 µM/min (DNA topoisomerase 2-alpha (TOP2A, Homo sapiens, UniProt P11388); ATPase activity; 7.8 µM, with: ATP 1 mM).
`COC(=O)c1cn(C)c2ccc(-c3cccnc3)cc12` gave an activation of 0.44 fold (Nuclear receptor subfamily 5 group A member 2 (NR5A2, Homo sapiens, UniProt O00482); reporter gene, Gal4 hybrid reporter; 10 µM; reference: vehicle).
For `O=C(O)c1ccc(Nc2ncc3c(n2)-c2ccc(Cl)cc2C(c2c(F)cccc2F)=NC3)cc1`, the remaining activity was 112% (PKCµ(h); kinase activity; 1 µM).
Under “onset time of degradation”, `Cc1ncsc1-c1ccc(CNC(=O)[C@@H]2C[C@@H](O)CN2C(=O)[C@@H](NC(=O)CCCCCCCCCCCC(=O)NCCCCC#Cc2cccc(-c3nn(-c4nc(C(=O)O)cs4)c(CC4CC4)c3Cc3ccc(S(N)(=O)=O)cc3)c2)C(C)(C)C)cc1` is recorded as 24 h (L-lactate dehydrogenase A chain (LDHA, Homo sapiens, UniProt P00338); degrader, western blot; PANC-1; 1 µM).
`Cc1cc2nc3[nH]c(=O)[nH]c(=O)c3nc2cc1C` has a Kd of 30 nM (T1, riboswitch RNA yjdF aptamer domain (Bacillus subtilis); fluorescence titration; with: 380 nM lumichrome).
The remaining activity of `CNCC(=O)O` is reported as 103% (Sodium- and chloride-dependent glycine transporter 2 (Homo sapiens, UniProt Q9Y345, S479G); glycine uptake, inhibitor, [3H]glycine uptake; 100 µM, S479G mutant, log concentration -1, with: [3H]glycine; reference: no inhibitor).
`O=c1cc(-c2ccccc2)nc2cc(-c3ccco3)[nH]n12` gave a koff of 0.0308 s⁻¹ (Flavin reductase (NADPH) (BLVRB, Homo sapiens, UniProt P30043); binding).
`Nc1ncnc2c1ncn2[C@@H]1O[C@H](COP(=O)(O)CP(=O)(O)OP(=O)(O)O)[C@@H](O)[C@H]1O` gave a specific binding of 1380 CCPM and 1120 CCPM (P2X purinoceptor 1 (P2RX1, Homo sapiens, UniProt P51575, R139A); saturation binding; HEK293; 25 nM).
`Nc1nc2c(ncn2[C@@H]2O[C@H](COP(=O)(O)O)[C@@H](O)[C@H]2O)c(=O)[nH]1` gave a reaction rate of 0.398 s⁻¹ and 0.544 s⁻¹ and 0.546 s⁻¹ (GUK1 (Homo sapiens, UniProt Q16774, E72A); enzyme activity, NADH-coupled; 1000 µM).
`N#Cc1ccc2c(CN3CCOCC3)cc(-c3ccc([C@@H]4CCC(=O)N4)cc3)nc2c1` has an FRET efficiency of 4.5 ± 0.3% (Advanced glycosylation end product-specific receptor, with DIAPH1 (AGER, Homo sapiens, UniProt Q15109); acceptor photobleaching; HEK-293T expressing RAGE-eCFP; 0.1 µM, 60 min).
`N[C@@H](Cc1ccc(O)cc1)C(=O)Nc1ccc2ccccc2c1` has a Km of 10 µM (rat neuron-specific aminopeptidase; substrate).
`OC1(c2ccc(Cl)cc2)CCN(Cc2c[nH]c3ccccc23)CC1`: “inward current density” -5 ± 0.5 pA/pF (CatSper channel complex (Homo sapiens, UniProt Q7RTX7+Q86XQ3+Q8NEC5+Q96P56); ion current, whole-cell patch clamp; human sperm; 10 µM, at -80 mV).
`CCC(C)(NCCc1ccc(C(F)(F)F)cc1Cl)c1cccc(NC2=CC(=O)N(C3CCC(=O)NC3=O)C2=O)c1` (centres unmarked) gave a Dmax of 57% (ZBTB11/CRBN; protein degradation, degrader, HiBiT luminescence; MOLT-4).
For `O=c1nc(SCc2cc(F)cc(C(F)(F)F)c2)nc(SCc2csc3ccc(Cl)cc23)[nH]1`, “mean decatenated DNA” read 100% (DNA topoisomerase 2-beta (TOP2B, Homo sapiens, UniProt Q02880); decatenation; 1.95 µM).
`CC(=O)N[C@H](C(=O)N1C[C@H](O)C[C@H]1C(=O)NCc1ccc(-c2scnc2C)cc1)C(C)(C)SCCCCCCNC(=O)C[C@@H]1N=C(c2ccc(Cl)cc2)c2c(sc(C)c2C)-n2c(C)nnc21` has a ΔG of -10.18 ± 0.05 kcal/mol (Bromodomain-containing protein 3, BD1 (BRD3, Homo sapiens, UniProt Q15059); binding, ITC; 25 °C, compound in cell, protein in syringe).
`[2H]c1cc(C)c(NC(=O)c2cnc(Nc3cc(N4CCCCC4)nc(C)n3)s2)c(Cl)c1` has an inhibition of 30 to 90% (Mast/stem cell growth factor receptor Kit (KIT, Homo sapiens, UniProt P10721, D816Y); 0.01 µM).
With `C=CC(=O)N1CCC(COCC(=O)N2CCN(c3nc(-c4cnc(N)nc4C(F)F)nc(N4CCOC[C@@H]4C)n3)CC2)CC1` the remaining binding was 98% (Bone morphogenetic protein receptor type-2 (BMPR2, Homo sapiens, UniProt Q13873); KINOMEscan; 1 µM; reference: DMSO control).
For `N#Cc1ccc2c(-c3ccncc3)c(-c3ccc(F)cc3)nn2c1`, “log2 fold change” read 0.219 (Negative regulator of the PHO system (PHO85, Candida albicans, UniProt Q9HGY5); kinase binding, competitor, MIB/MS competition, measured: PHO85; Candida albicans cell lysate; 100 nM; reference: DMSO).
`C=C1CN(S(=O)(=O)c2ccc(C)cc2)CCCN(Cc2ccccc2)CCCN(S(=O)(=O)c2ccc(C)cc2)C1` gave an FLuc/RLuc ratio of 1.07 (Protein transport protein Sec61 subunit alpha isoform 1 (Homo sapiens, UniProt P61619); measured: control signal peptide-FLuc reporter; HEK293; 0.04 mM, 6 h).
`COc1cc(NC(=O)c2cscn2)ccc1/N=N/c1ccccc1Cl` has an activation of -4.43% (Metabotropic glutamate receptor 1 (GRM1, Homo sapiens, UniProt Q13255); positive allosteric modulator, IP accumulation; HEK293; 30 µM, in the dark, with: low-dose orthosteric agonist).
The Km of `Nc1ncnc2c1ncn2[C@@H]1O[C@H](COP(=O)(O)OP(=O)(O)OP(=O)(O)O)[C@@H](O)[C@H]1O` is reported as 100 ± 30 µM (Creatine kinase U-type, mitochondrial (CKMT1A, Homo sapiens, UniProt P12532); substrate, ADP-Glo luminescence; pH 8.5, forward reaction, WT mutant, with: second substrate in excess).
The current density of `Nc1ccc(C(=O)O)cc1` is reported as -12.9 pA/pF and -11.6 pA/pF and -3.21 pA/pF and -9.56 pA/pF and -32.6 pA/pF and -9.46 pA/pF (BEST1, with wild-type BEST1 (Homo sapiens, UniProt O76090, Q293K); ion current, whole-cell patch clamp; HEK293 co-expressing mutant and wild-type; concentration not given, voltage -80 mV).
`CC[C@H](C)[C@@H]1NC(=O)[C@H](C)NC(=O)[C@H]([C@@H](C)CC)NC(=O)[C@H](CCC(N)=O)NC(=O)[C@H](C)NC(=O)[C@H](CCCNC(=N)N)NC(=O)[C@H](C(C)C)NC(=O)[C@H](CC(C)C)NC(=O)[C@H](CCC(=O)O)NC(=O)[C@H](CCCNC(=N)N)NC(=O)CNC(=O)[C@@H](NC(=O)[C@H](CC(C)C)NC(=O)[C@H](CCCCN)NC(=O)[C@@H](NC(=O)[C@@H](NC(=O)[C@H](CCC(=O)O)NC(=O)[C@H](CCC(=O)O)NC(=O)[C@H](CCSC)NC(=O)[C@H](Cc2c[nH]c3ccccc23)NC(=O)[C@H](CO)NC(=O)[C@@H](N)CC(=O)O)C(C)C)[C@@H](C)CC)CSSC[C@@H]2NC(=O)[C@@H](NC(=O)[C@H](CCCCN)NC(=O)[C@H](CC(N)=O)NC(=O)[C@H](C)NC(=O)[C@H](CC(C)C)NC(=O)[C@H](C)NC(=O)[C@H](CO)NC(=O)[C@H](Cc3ccc(O)cc3)NC(=O)[C@H](CC(C)C)NC(=O)[C@H](CCC(N)=O)NC(=O)c3ccc(-c4c5ccc(=[N+](C)C)cc-5oc5cc(N(C)C)ccc45)c(C(=O)[O-])c3)CSSC[C@H](NC(=O)CNC(=O)[C@H](C(C)C)NC(=O)[C@H](Cc3c[nH]cn3)NC2=O)C(=O)N[C@@H]([C@@H](C)O)C(=O)N[C@@H](CCCCN)C(=O)N[C@@H](CCCNC(=N)N)C(=O)N[C@@H](CO)C(=O)N[C@@H](CC(C)C)C(=O)N[C@@H](C)C(=O)N[C@@H](CCCNC(=N)N)C(=O)N[C@@H](Cc2ccccc2)C(=O)N[C@H](C(=O)O)CSSC[C@@H](C(=O)NCC(=O)N[C@@H](CCSC)C(=O)N[C@@H](CO)C(=O)N[C@H](C(=O)N[C@@H](Cc2c[nH]c3ccccc23)C(=O)N[C@@H](CO)C(=O)O)[C@@H](C)O)NC1=O`: “koff fast phase” 0.00867 s⁻¹ (Relaxin receptor 1 (RXFP1, Homo sapiens, UniProt Q9HBX9, F76A/Y80A); dissociation, NanoBRET; with: relaxin 10 µM).
For `CC[C@@H]1[C@H](F)C(=O)N[C@@H]1COc1nccc2cc(C(N)=O)c(OC)cc12`, the inhibition was 8.5% (Interleukin-1 receptor-associated kinase 1 (IRAK1, Homo sapiens, UniProt P51617); ATP-site probe binding, ActivX profiling; THP-1 cell lysate; 0.04 mM, Lys2 site).
For `O=C(CCCCCCC(=O)Nc1ccccc1)NO`, the binding stoichiometry was 0.8 (Histone deacetylase 8 (HDAC8, Homo sapiens, UniProt Q9BY41); ITC; phosphate buffer; concentration not given, pH 7.5).
`CCCCc1nc2c(o1)c(N)nc1ccccc12` — result for EC50: “inactive” (Toll-like receptor 7 (TLR7, Homo sapiens, UniProt Q9NYK1); reporter gene, agonist, NF-κB reporter; HEK-Blue TLR7).
Under “fold increase in apparent Kd”, `Nc1ncnc2c1cnn2C1CCCCC1` is recorded as about 40 fold (Inositol-tetrakisphosphate 1-kinase (Homo sapiens, UniProt Q13572); binding, microscale thermophoresis; highest compound concentration, with: increasing ATP; reference: no ATP).
The H2O2 concentration of `CC(C)OCCn1c(=S)[nH]c(=O)c2[nH]ccc21` is reported as -0.483 µM (Myeloperoxidase (MPO, Homo sapiens, UniProt P05164); H2O2 consumption, inhibitor, H2O2 electrode; 0.45 µM, 0.2 s).
Under “normalised MST signal”, `NCCCC(=O)O` is recorded as 0.0395 (Sodium- and chloride-dependent taurine transporter (SLC6A6, Homo sapiens, UniProt P31641, Y138A); binding, microscale thermophoresis; 62.5 µM, room temperature, with: 50 nM labelled protein; higher = more binding).
The selectivity ratio of `Cc1cc(=O)oc2cc(OCCCCSC#N)ccc12` is reported as over 1840 (Carbonic anhydrase 12 (CA12, Homo sapiens, UniProt O43570); stopped-flow CO2 hydration; reference: Ki CA II over Ki CA XII).
For `CCOC(=O)[C@](CC)(CCCS(=O)(=O)CCOCCOCCNC(=O)OC(C)(C)C)NC(=O)c1ccc(C2CC2)c(Cc2ccc(F)cc2)n1`, the selectivity ratio was at least 577 fold (Cannabinoid receptor 2 (CNR2, Homo sapiens, UniProt P34972); cAMP level; with: forskolin; reference: hCB1 over hCB2).
`COc1cc(-c2cc(C(C)=O)n3ccccc23)c(OC)cc1Cn1ccnc1` gave a ΔTm of 4.8 °C (Bromodomain-containing protein 3, BD2 (BRD3, Homo sapiens, UniProt Q15059)).
`Cc1nnc2n1-c1sc(C#Cc3cnn(C4(CCN5CCN(C)CC5)CN(c5cccc6c5C(=O)N(C5CCC(=O)NC5=O)C6=O)C4)c3)c(Cc3ccccc3)c1COC2` (centres unmarked) — result for protein level: “no effect” (Bromodomain-containing protein 3 (BRD3, Homo sapiens, UniProt Q15059); degrader, western blot; SCID mouse MV4-11 xenograft, tumour; intraperitoneal, 20 mg/kg single dose).
For `O=C1CCC(N2C(=O)C=C(Nc3cccc(S(=O)(=O)NCCc4ccc(C(F)(F)F)c(Cl)c4)c3)C2=O)C(=O)N1` (centres unmarked), the Dmax was 50% (ZBTB11/CRBN; protein degradation, degrader, HiBiT luminescence; MOLT-4).
`OC[C@H]1OC(O)[C@H](O)[C@@H](O)[C@@H]1O` (some centres unmarked) gave a kcat of 34 ± 3 s⁻¹ (Hexokinase-3 (HK3, Homo sapiens, UniProt P52790, R480W); substrate inhibition; mutant R480W, complete substrate inhibition model, with: ATP 20 mM).
`O=C(COP(=O)(O)O)[C@@H](O)[C@H](O)[C@H](O)COP(=O)(O)O`: “thermal stability ratio” 0.659 (Heterogeneous nuclear ribonucleoprotein U-like protein 2 (Homo sapiens, UniProt Q1KMD3); thermal proteome profiling, measured: HNRNPUL2; HepG2 cell lysate; concentration not given, 57 over 37 °C, mean; reference: compound over control).
`C#Cc1cc(-c2cc(Nc3nc(N[C@@H](C)c4ccc(F)cn4)ncc3Cl)n[nH]2)ccc1C=O` has an inhibition of 6.82% (Mast/stem cell growth factor receptor Kit (KIT, Homo sapiens, UniProt P10721, V559D); enzyme activity, inhibitor; 0.2 µM).
`NCCCS(=O)(=O)O` — result for “normalised MST signal”: -0.00436 (Sodium- and chloride-dependent taurine transporter (SLC6A6, Homo sapiens, UniProt P31641, G62A); binding, microscale thermophoresis; 62.5 µM, room temperature, with: 50 nM labelled protein; higher = more binding).
For `CCNC(=O)/C=C/c1cccc(Br)c1`, “remaining transport activity” read 0.474 (Sodium-dependent neutral amino acid transporter B(0)AT1 (SLC6A19, Homo sapiens, UniProt Q695T7); inhibitor, FLIPR membrane potential; CHO-BC cells; 1 µM, unit not given; reference: no inhibitor).
